Measured values collected from several papers.
Each numbered part is a random draw from the data of one study; scales do not carry over between parts.

Block 1 — technique: protein binding microarray; form: double-stranded DNA, one strand shown; matrix: in vitro; tested at: not given; relative to: not given; direction: higher = stronger binding
Target: Histone acetyltransferase KAT6A, winged helix 1, GST fusion (KAT6A, Homo sapiens, UniProt Q92794, residues 1-85)
Setting: 8-mer, flanks averaged, mean of 2 arrays, mostly near background
Construct (chain): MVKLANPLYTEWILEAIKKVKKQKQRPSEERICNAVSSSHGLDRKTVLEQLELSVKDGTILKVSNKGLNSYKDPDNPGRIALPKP
`GCGTAGTA` has an E-score of 0.169.
`GAGACGTA` gave an E-score of -0.133.
`TGACCACA` has an E-score of -0.278.
For `ACCACGAA`, the E-score was -0.218.
`AGGCCGGA` gave an E-score of 0.175.
`GACACAGC` gave an E-score of 0.0596.
With `AAGGTCGG` the E-score was 0.0077.
With `GCAAATAC` the E-score was -0.13.
`GCATGTAA` has an E-score of 0.179.
`GCACGGTA` gave an E-score of 0.214.
For `GACTAGGC`, the E-score was -0.00463.
`AGTAACCG` has an E-score of 0.175.
`GCCTGGAC` gave an E-score of -0.0623.
`GGGCTACC` gave an E-score of -0.0795.
`CATCTACA` has an E-score of -0.265.
The E-score of `GAGCGTAA` is reported as 0.226.
`AATCCAAT` has an E-score of -0.135.
The E-score of `ATGTTTTC` is reported as -0.016.
For `AGTGGCAG`, the E-score was -0.124.
The E-score of `AAATCCAT` is reported as -0.197.
For `CGACCTAC`, the E-score was 0.0406.
For `TAGGTTGA`, the E-score was -0.165.
`AGTTGTGA` gave an E-score of -0.196.
`ATCAGTGA` has an E-score of -0.198.
For `AATATACA`, the E-score was -0.137.

Block 2 — technique: universal PBM; form: double-stranded DNA, one strand shown; matrix: in vitro; tested at: not given; direction: higher = stronger binding
Target: Sal-like protein 4, full length isoform B (SALL4, Homo sapiens, UniProt Q9UJQ4-2, residues 1-616)
Setting: 8-mer, flanks averaged, mean of replicates
With `ATAGACTA` the E-score was 0.186.
For `ATACCCTG`, the E-score was -0.0375.
With `AAAACGAA` the E-score was 0.163.
`GAGCGGCA` gave an E-score of -0.231.
`AACGTAAA` has an E-score of 0.286.
`ATCAAGTC` gave an E-score of 0.123.
For `ATAGGGAT`, the E-score was 0.122.
For `CCAGTTTA`, the E-score was 0.0322.
The E-score of `GCCATTAC` is reported as -0.116.
`CTTGTTAC` gave an E-score of 0.118.
For `GCTATAGC`, the E-score was 0.0484.
`GGAACCAC` has an E-score of -0.2.
`ACTCTCGA` gave an E-score of -0.078.
`CCCCACTA` has an E-score of -0.188.
`GCATTGAA` has an E-score of 0.0837.
For `CGCCACCC`, the E-score was -0.278.
With `CTAGCTCA` the E-score was -0.151.
For `CGCTCCCA`, the E-score was -0.196.
For `ATTTTTAA`, the E-score was 0.296.
With `ATCACACA` the E-score was 0.181.
`TCGACGCA` gave an E-score of -0.161.
The E-score of `CGTTGCAG` is reported as -0.135.
`GGTGCTAA` has an E-score of 0.00262.
With `CCGGCGCC` the E-score was -0.352.
`ACTAGCGA` gave an E-score of -0.0377.

Block 3 — technique: RNA Bind-n-Seq; form: RNA; matrix: in vitro; tested at: 200 nM; setting: whole 134-nt RNA, ends assumed; added: 150 mM LiCl; relative to: input library; direction: higher = stronger binding; library: 7-deaza-guanosine replaces G
Target: Fragile X messenger ribonucleoprotein 1, C-terminal low-complexity region (Fmr1, Mus musculus, UniProt P35922)
`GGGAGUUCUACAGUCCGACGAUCCCUCAAGUCCUGUGCUACACAUCGUAUGUACCGAAUCGGGCGGGGCGGCGGGGAAAGUAUUAUGUUACGCCGUUCGGAUCUGCACUUCCAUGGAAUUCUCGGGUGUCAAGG` gave a log2 enrichment of -0.881.
With `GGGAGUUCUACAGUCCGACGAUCUUCUAUUUCUUUCCUUAAUGUUUUUUUCUUCCCUACUGUUUUAUCCUCCCUUUGCUUUGGAAGGAUAUUGCUGCAUAUCGAGCUAAAGGAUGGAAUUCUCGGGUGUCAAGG` the log2 enrichment was 0.156.
For `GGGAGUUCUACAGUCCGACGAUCGCAGGAAGUAAAGACAAAUGGAAAUGCUUCGGAUAGUGGCAGGGGUGGGGGUUGCUAAGGAAAGGGUGGGAUGGGAGUGGGUAAAGAGUUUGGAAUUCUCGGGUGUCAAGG`, the log2 enrichment was 1.44.
With `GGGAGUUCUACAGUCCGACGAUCAAGUCCUGUGCUACACAUCGUAUGUACCGAAUCGGGUGGGUUUUUUUGGGUUUGGGAAAGUAUUAUGUUACGCCGUUCGGAUCUGCACUUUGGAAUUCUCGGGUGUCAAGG` the log2 enrichment was -1.57.
For `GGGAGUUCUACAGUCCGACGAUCCCUGUGCUACACAUCGUAUGUACCGAAUCGGGGAAAAAAGGGAAAAAAGGGGAAAAAAGGGAAAGUAUUAUGUUACGCCGUUCGGAUCUGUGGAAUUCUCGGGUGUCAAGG`, the log2 enrichment was 0.722.
`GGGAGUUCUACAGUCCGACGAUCUCCUGUGCUACACAUCGUAUGUACCGAAUCGGGGAGGGGUUUUUGGGGUUUUUUUGGGGAAAGUAUUAUGUUACGCCGUUCGGAUCUGCAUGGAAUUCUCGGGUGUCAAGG` gave a log2 enrichment of 0.00332.
The log2 enrichment of `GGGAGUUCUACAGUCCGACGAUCGCAGGAAGUAAAAACAAAAAGAAAUGCUUCGGAUAGUGGCAGGGGUGGGGGUUGCUAAGGAAAGGGUGGGAUGGGAGUGGGUAAAGAGUUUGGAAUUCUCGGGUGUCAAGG` is reported as 1.06.
With `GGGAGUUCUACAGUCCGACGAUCCUCAAGUCCUGUGCUACACAUCGUAUGUACCGAAUCGGAAAGGAGGAAAAAGGAAAGUAUUAUGUUACGCCGUUCGGAUCUGCACUUCCAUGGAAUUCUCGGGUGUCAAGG` the log2 enrichment was -0.812.

Block 4 — technique: RNA Bind-n-Seq; form: RNA; matrix: in vitro; tested at: 365 nM; relative to: no-protein control; direction: higher = stronger binding
Target: RNA binding protein fox-1 homolog 2, RRM domain, GST-SBP tag (RBFOX2, Homo sapiens, UniProt O43251-10, residues 100-194)
Setting: natural RNA segment, single round, ends assumed
Target sequence (chain): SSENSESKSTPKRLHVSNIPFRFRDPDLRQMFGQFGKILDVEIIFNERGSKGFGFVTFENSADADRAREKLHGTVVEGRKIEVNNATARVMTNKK
For `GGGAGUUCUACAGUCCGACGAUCUAUUUAGGCUUAUCCUGUUUUGAAAUGAUGGUAGUCAUCUUUCUUACUGCUACUUUCAUGUUGCUUUCUAGAAAACAGCAUUUCAUUCCAAAAUAACUAGGAUCUGCAUUUGGAAUUCUCGGGUGCCAA`, “RBNS enrichment (R)” read 0.382.
`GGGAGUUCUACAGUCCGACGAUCAUUGAGUCCCCACGGCAUCUCUGGGAGGCAGGUGGUGAGCUCUUCACACAUCUUGAGCGAGAAGGCAUCUUCCUGGAAGACACAGCCUGCUUCUACCUGGCAGAGAUCACUGGAAUUCUCGGGUGCCAA` — result for “RBNS enrichment (R)”: 0.307.
For `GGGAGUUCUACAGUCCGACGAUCUUGGAGUCAGACAGGCCUGGCACAGGCACUGGAGCUACUGAAUGAAGCUCUAGCUUAGCCUUCUCAGUAAGGUGUAAGAAGCUGGUGUUGCUGUGUAGUGUUAAUUUAUUUGGAAUUCUCGGGUGCCAA`, “RBNS enrichment (R)” read 0.631.
Under “RBNS enrichment (R)”, `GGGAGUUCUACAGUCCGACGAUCAUGGCAACUGAGAUUCUAAGCUCUCUUUGUCUCAUCCAGGCAACUUUUCUGUCUCCCAACCAAGGAAUUCCUCUGCUCAGGCUCCUGUUGCCCAGGAUAGCUCUCUUCUAUGGAAUUCUCGGGUGCCAA` is recorded as 0.277.
For `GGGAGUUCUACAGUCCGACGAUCAUCAUUUUGGGUCAGACAUCAAUGUCCCUGUCCCCCCUGGGUCCAGCCAAGCUGUGCCCCAUCCCCCAAGCCUCCUGGGAGGAUCCAGCCAAAUCUUGCGACUCCUGGCAUGGAAUUCUCGGGUGCCAA`, “RBNS enrichment (R)” read 0.548.
For `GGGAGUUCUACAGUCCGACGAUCAGAGUCAAAUGGACAGUAGAAGCAUGUGAUAGCCAGAAGGGCUGAGGCUGAUCUGGGUCCCCCAAAGCCCAGAGAGAGAGAGAUAGACUCUGCACAACCUCUCGGUGCUAUGGAAUUCUCGGGUGCCAA`, “RBNS enrichment (R)” read 16.8.
Under “RBNS enrichment (R)”, `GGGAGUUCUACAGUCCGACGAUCGAGACAUCUUGGCCUCCUAGGCUAAGUUUACUAAACCACACUGAAGCUAUAGUACCUUCCAGAUGGGCAAAAGUGUACACUACAGUUGAGGAGCUGAACCUUAUUAGGUUUGGAAUUCUCGGGUGCCAA` is recorded as 0.241.
`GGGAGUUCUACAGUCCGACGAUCUUUGAGGCCCCAGGUGAAGCGGGGCCCUACUCCGGCCUCUGCCUUGGGCCUCGCCUCUGUCCUCAGGUCCUCUCAGAGGCAGAUACCUAGGGGAGCUGCUGCUGCCUGCUUGGAAUUCUCGGGUGCCAA`: “RBNS enrichment (R)” 0.354.

Excerpt of the above (block 1):
`GAGACGTA` gave an E-score of -0.133.
`TGACCACA` has an E-score of -0.278.
For `ACCACGAA`, the E-score was -0.218.
`AGGCCGGA` gave an E-score of 0.175.
`GACACAGC` gave an E-score of 0.0596.
With `AAGGTCGG` the E-score was 0.0077.
With `GCAAATAC` the E-score was -0.13.
`GCATGTAA` has an E-score of 0.179.
`GCACGGTA` gave an E-score of 0.214.
